Assay results from different studies.
A part holds a random share of what one study measured. Substitutions count along the parent as printed.
UniProt P49427, sequence (whole entry, looked up): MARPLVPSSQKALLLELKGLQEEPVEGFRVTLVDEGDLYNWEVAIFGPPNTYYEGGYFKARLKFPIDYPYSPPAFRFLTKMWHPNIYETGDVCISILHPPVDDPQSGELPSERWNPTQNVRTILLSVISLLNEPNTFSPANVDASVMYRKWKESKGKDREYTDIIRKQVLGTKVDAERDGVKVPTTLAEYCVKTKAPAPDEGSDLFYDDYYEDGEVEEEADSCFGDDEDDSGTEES
UniProt O14933, sequence (whole entry, looked up): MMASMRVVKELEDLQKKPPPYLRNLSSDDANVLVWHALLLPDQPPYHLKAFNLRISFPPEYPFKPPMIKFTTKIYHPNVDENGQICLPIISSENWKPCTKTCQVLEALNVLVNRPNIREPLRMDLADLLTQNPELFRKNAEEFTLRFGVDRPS
UniProt P61088, sequence (whole entry, looked up): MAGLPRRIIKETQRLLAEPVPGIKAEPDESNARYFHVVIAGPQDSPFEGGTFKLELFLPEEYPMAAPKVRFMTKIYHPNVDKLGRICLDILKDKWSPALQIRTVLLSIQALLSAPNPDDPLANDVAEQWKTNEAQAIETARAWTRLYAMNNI
UniProt Q5VVX9, sequence (whole entry, looked up): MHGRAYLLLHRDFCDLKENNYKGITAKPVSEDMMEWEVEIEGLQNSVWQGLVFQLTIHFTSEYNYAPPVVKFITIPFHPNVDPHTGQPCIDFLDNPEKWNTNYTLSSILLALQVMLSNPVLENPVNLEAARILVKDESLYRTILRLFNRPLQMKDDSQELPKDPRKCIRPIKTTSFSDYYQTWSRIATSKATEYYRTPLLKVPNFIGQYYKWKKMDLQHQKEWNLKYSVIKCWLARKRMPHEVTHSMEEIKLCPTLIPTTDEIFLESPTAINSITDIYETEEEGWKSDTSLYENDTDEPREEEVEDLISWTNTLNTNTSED
UniProt P51965, sequence (whole entry, looked up): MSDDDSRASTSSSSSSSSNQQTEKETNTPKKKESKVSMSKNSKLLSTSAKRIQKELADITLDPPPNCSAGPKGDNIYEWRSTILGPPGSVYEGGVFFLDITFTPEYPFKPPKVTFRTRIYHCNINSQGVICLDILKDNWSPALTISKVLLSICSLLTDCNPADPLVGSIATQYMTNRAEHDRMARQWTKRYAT
UniProt Q96LR5, sequence (whole entry, looked up): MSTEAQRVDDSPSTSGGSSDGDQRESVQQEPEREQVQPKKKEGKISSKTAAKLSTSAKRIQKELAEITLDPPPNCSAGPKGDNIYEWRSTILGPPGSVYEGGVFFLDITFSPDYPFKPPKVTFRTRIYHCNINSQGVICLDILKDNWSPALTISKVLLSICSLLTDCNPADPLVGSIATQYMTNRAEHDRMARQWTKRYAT
UniProt P60604, sequence (whole entry, looked up): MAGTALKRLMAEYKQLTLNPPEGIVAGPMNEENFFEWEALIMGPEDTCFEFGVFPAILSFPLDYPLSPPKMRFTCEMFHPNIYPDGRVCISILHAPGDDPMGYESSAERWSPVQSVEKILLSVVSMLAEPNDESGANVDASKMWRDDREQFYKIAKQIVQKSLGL
UniProt Q13404, sequence (whole entry, looked up): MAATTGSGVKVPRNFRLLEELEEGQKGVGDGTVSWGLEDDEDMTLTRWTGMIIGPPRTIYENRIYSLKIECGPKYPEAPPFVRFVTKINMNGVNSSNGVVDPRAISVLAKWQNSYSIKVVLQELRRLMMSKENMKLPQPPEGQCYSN
UniProt Q8WVN8, sequence (whole entry, looked up): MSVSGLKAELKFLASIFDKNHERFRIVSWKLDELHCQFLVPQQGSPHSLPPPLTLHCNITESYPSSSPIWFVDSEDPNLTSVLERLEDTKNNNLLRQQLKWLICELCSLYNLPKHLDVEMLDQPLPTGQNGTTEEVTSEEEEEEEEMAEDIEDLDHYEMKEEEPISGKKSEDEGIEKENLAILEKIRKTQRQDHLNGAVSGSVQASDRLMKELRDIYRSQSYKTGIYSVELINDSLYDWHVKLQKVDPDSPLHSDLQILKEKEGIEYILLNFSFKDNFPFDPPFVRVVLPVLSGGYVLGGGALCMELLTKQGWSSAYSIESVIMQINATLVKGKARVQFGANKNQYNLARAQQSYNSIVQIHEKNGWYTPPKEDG
UniProt P62256, sequence (whole entry, looked up): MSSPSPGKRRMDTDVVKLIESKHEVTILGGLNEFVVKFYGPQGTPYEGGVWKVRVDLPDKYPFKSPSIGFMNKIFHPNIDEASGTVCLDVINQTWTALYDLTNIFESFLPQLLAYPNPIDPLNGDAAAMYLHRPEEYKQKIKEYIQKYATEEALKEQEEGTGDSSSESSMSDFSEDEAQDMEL
UniProt Q15819, sequence (whole entry, looked up): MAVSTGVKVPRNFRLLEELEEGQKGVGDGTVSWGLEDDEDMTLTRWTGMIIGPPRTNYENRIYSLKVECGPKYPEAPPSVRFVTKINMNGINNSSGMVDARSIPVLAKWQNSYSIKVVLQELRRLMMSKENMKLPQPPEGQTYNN

Sample 1 — technique: protein-binding microarray; form: double-stranded DNA, one strand shown; medium: in vitro; tested at: not given; direction: higher = stronger binding
Target: Max dimerization protein 1, bHLH-zipper, MAX partner unstated (MXD1, Homo sapiens, UniProt Q05195, residues 56-136)
Setting: k-mer, scored over probes, only values ≥0.25
Residues (chain): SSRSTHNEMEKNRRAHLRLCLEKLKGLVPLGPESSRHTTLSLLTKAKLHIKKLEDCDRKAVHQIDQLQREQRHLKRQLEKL
Oligonucleotide | E-score
CCCCGCCA | 0.345
CCAGCACG | 0.312
CATGTTCC | 0.261
GGCATGAC | 0.253
ACGTGCAG | 0.343
ACGCACGC | 0.353
CATGATCG | 0.274
CCATGCAC | 0.326
ACGTGCAT | 0.395
CACATGCA | 0.43
AGGGCATG | 0.338
ACACGAGA | 0.395
AGCACACC | 0.258
CGCGTGAG | 0.291
GCGGGGAC | 0.29
ATGTTTAC | 0.279
TCACGCGA | 0.323
CCGCACGA | 0.273
CGCCCCTA | 0.258
CGCATGCA | 0.401
GCGTGGTA | 0.373
ATGTGTCC | 0.346
GGCGCCAC | 0.261
CACGCTAG | 0.311
CCTTCCAC | 0.254

Sample 2 — target: FOSL2, bZIP domain (human); technique: DHFR protein complementation; medium: yeast; baseline: wild-type JUN-FOS pair; direction: higher = stronger binding
Setting: single substitutions, most at no-binding floor
Starting sequence: JUN, bZIP domain (human); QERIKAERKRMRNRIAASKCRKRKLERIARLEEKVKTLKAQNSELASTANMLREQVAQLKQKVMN; partner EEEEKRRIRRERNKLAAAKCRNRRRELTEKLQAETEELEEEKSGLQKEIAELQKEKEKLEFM
Variant | binding fitness
R53T | -0.472 natural log
E33D | -0.00156 natural log
A57K | 0.155 natural log
S47Y | -0.0709 natural log
S43C | 0.0236 natural log
T48R | 0.124 natural log
V56A | -1.2 natural log
Q55A | 0.108 natural log
N42R | -0.139 natural log
L45H | -0.832 natural log
K39C | -0.482 natural log
K39V | -0.246 natural log
L45K | -1.15 natural log
E33L | 0.00987 natural log
A49F | -0.619 natural log
T48H | 0.0617 natural log
S43Y | -0.038 natural log
S43N | 0.0309 natural log
S43K | 0.239 natural log
L52D | -1.43 natural log
R53S | -0.414 natural log
E33V | -0.143 natural log

Sample 3 — technique: protein-binding microarray; form: double-stranded DNA, one strand shown; medium: in vitro; tested at: 2540 nM top; setting: 60-bp whole probe; with: salmon DNA 0.4 mg/ml; baseline: random background probes; direction: higher = stronger binding; constant ends, left off below: GCCTAGCAC … GTCTTGATTCGCTTGACGCTGCTG
Target: Interferon regulatory factor 3, full length, phosphomimetic (IRF3, Homo sapiens, UniProt Q14653, residues 1-427, S386D/S396D/S398D/S402D/T404D/S405D)
Residues (chain): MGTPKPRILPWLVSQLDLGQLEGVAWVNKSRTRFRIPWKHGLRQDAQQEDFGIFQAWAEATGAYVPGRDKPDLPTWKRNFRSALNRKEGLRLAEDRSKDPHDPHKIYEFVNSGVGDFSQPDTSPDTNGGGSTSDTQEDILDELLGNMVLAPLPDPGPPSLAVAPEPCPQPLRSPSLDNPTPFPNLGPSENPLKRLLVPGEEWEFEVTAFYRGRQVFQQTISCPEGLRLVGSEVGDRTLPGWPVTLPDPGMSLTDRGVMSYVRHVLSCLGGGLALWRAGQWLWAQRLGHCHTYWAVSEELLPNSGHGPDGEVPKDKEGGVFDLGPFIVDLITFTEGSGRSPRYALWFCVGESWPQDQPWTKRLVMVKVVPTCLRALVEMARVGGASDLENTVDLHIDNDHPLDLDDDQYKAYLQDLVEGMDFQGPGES
Oligonucleotide | fitted relative affinity
TTAGGTCTCGGACTGCGTTAGTGCTAG | -0.307 z-score
TCCATTATTGCTTCCTCTTTGTGCTAG | 0.918 z-score
GACGAACTGAGTATCGCGACGTGCTAG | -0.24 z-score
TTAGGTATCCTACTGCTTTAGTGCTAG | 2.4 z-score
GACAGTTTCCTTCTCCTGACGTGCTAG | 11.2 z-score
GACGAGTTCAGTTTCGAGACGTGCTAG | 2.77 z-score
GACGGTATCCTTCTCCTGAGGTGCTAG | 6.69 z-score
TGAGATATCAGACTGGATTAGTGCTAG | -0.0552 z-score
GGTCTTCTGGGCTGTTTGGTCGTGCTA | -0.214 z-score
TTAGGACTGCTTTTCCCTTAGTGCTAG | 0.298 z-score
TTAGGACTGGGTTTCGGTTTGTGCTAG | 5.22 z-score
TCACATCTTGTTCCCAGACTGTGCTAG | 1.23 z-score
TTAGATTTCAGTTCCGATTAGTGCTAG | 3.92 z-score
GACGGTATCCTAATCCTGACGTGCTAG | 4.37 z-score
TTAGGTCTCCGTTTCGGTTAGTGCTAG | 4.88 z-score
TTAGGTATCCTTATCCTATAGTGCTAG | 5.75 z-score
TTAGGACTCGGTATCGGTTAGTGCTAG | 1.72 z-score
GTACATCTCTCTTAAATAGGGTGCTAG | 0.737 z-score
GACGGTTTCGGTACCGGGACGTGCTAG | 7.24 z-score
TTAGATTTCGGTCTCGGTTAGTGCTAG | 4.88 z-score

Sample 4 — technique: DHFR PCA, deep sequencing; medium: yeast; with: (+)-ABA 1.4 µM; baseline: wild-type fitted maximum; direction: higher = stronger binding
Target: ABI1, truncated, D143A, DHFR fusion (Arabidopsis thaliana)
Setting: methotrexate growth selection, single substitutions
Starting sequence: PYL1, truncated, DHFR fusion (Arabidopsis thaliana); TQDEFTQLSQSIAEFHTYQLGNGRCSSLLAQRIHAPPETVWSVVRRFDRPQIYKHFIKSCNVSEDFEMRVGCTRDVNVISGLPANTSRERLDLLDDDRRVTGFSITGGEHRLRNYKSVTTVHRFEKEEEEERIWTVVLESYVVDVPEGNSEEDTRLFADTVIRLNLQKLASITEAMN; partner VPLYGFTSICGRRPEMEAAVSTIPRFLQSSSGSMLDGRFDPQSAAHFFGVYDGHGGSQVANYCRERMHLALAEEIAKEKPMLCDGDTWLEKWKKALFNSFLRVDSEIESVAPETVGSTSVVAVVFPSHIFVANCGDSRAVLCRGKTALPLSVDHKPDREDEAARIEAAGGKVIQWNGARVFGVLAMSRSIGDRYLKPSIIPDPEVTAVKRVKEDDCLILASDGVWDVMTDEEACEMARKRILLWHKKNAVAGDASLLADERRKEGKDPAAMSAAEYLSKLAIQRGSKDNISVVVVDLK
Variant | relative binding score
H16N | -12.4%
E4R | 28.6%
T119N | -2.81%
H34A | 56.6%
N61K | 74.2%
E151H | 41%
L20N | 39.1%
S26G | 35.6%
V136Q | -0.629%
T39V | 70.1%
A30F | 53.3%
S104M | -2.56%
M176N | 25.9%
V145H | -18.2%
C25I | 32.5%
P50V | -7.67%
I33N | -7.14%
L112Y | -4.35%

Sample 5 — technique: yeast two-hybrid; form: peptide; medium: yeast; setting: mostly zero background; baseline: not given; direction: higher = stronger interaction
Sequence: ANYISAHTKDCPKCNICIEKNGGCNHMQCSKCKHDFCWMCLGDWKTHGSE (ARIH2 RING domain (UniProt O95376))
target | lacZ reporter activity
UBE2N UBC core domain (UniProt P61088) | 0
UBE2V2 UBC core domain (UniProt Q15819) | 0
UBE2G2 UBC core domain (UniProt P60604) | 0
UBE2E2 UBC core domain (UniProt Q96LR5) | 0
CDC34 UBC core domain (UniProt P49427) | 0
UBE2E1 UBC core domain (UniProt P51965) | 0
UBE2L6 UBC core domain (UniProt O14933) | 0
UBE2H UBC core domain (UniProt P62256) | 0
UBE2V1 UBC core domain (UniProt Q13404) | 0
UBE2Q2 UBC core domain (UniProt Q8WVN8) | 0
UBE2U UBC core domain (UniProt Q5VVX9) | 14000

Sample 6 — target: CCNA1, cyclin fold, Cln2 fusion (human); technique: yeast growth competition, sequencing; medium: yeast; setting: weak parent motif; baseline: not given; direction: higher = stronger binding
Starting sequence: CDKN1B docking peptide (human); PSACRNLFGPVDH; partner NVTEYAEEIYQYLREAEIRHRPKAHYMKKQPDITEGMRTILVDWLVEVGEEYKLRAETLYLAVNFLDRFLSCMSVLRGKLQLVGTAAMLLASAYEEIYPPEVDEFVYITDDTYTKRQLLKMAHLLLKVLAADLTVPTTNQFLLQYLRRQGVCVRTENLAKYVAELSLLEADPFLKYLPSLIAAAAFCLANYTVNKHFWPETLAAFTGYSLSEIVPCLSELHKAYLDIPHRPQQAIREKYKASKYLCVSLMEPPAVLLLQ
Variant | normalised enrichment score
H13E | 0.365
A3Y | 0.269
L7D | 0.222
F8W | 0.326
R5K | 0.236
L7N | -0.0284
V11G | 0.367
V11R | 0.205
P1M | 0.107
N6Q | 0.346
N6F | 0.0493
S2C | 0.22
G9D | 0.375
V11L | 0.375
S2I | 0.424
S2R | 0.449
V11S | 0.448
D12S | 0.174
F8T | 0.331
F8K | 0.327
H13D | 0.315
H13Y | 0.224
D12A | 0.505
C4Y | 0.33

Repeated from above (sample 3):
Oligonucleotide | fitted relative affinity
TTAGGACTCGGTATCGGTTAGTGCTAG | 1.72 z-score
GGTCTTCTGGGCTGTTTGGTCGTGCTA | -0.214 z-score
TGAGATATCAGACTGGATTAGTGCTAG | -0.0552 z-score
GACGGTATCCTTCTCCTGAGGTGCTAG | 6.69 z-score
GACGAACTGAGTATCGCGACGTGCTAG | -0.24 z-score
TCCATTATTGCTTCCTCTTTGTGCTAG | 0.918 z-score
GACGGTTTCGGTACCGGGACGTGCTAG | 7.24 z-score
TTAGATTTCGGTCTCGGTTAGTGCTAG | 4.88 z-score
TTAGGTCTCGGACTGCGTTAGTGCTAG | -0.307 z-score
GACGAGTTCAGTTTCGAGACGTGCTAG | 2.77 z-score
TTAGGACTGCTTTTCCCTTAGTGCTAG | 0.298 z-score
GTACATCTCTCTTAAATAGGGTGCTAG | 0.737 z-score
TTAGGTATCCTACTGCTTTAGTGCTAG | 2.4 z-score
TTAGATTTCAGTTCCGATTAGTGCTAG | 3.92 z-score
GACAGTTTCCTTCTCCTGACGTGCTAG | 11.2 z-score
